Results pooled from the literature.
Each numbered part is a random draw from the data of one study; scales do not carry over between parts. Values joined by “and” are separate records of one study, mostly repeats; a detail may differ. ± gives the spread as reported.
Chain of UniProt Q13464 (whole entry, looked up): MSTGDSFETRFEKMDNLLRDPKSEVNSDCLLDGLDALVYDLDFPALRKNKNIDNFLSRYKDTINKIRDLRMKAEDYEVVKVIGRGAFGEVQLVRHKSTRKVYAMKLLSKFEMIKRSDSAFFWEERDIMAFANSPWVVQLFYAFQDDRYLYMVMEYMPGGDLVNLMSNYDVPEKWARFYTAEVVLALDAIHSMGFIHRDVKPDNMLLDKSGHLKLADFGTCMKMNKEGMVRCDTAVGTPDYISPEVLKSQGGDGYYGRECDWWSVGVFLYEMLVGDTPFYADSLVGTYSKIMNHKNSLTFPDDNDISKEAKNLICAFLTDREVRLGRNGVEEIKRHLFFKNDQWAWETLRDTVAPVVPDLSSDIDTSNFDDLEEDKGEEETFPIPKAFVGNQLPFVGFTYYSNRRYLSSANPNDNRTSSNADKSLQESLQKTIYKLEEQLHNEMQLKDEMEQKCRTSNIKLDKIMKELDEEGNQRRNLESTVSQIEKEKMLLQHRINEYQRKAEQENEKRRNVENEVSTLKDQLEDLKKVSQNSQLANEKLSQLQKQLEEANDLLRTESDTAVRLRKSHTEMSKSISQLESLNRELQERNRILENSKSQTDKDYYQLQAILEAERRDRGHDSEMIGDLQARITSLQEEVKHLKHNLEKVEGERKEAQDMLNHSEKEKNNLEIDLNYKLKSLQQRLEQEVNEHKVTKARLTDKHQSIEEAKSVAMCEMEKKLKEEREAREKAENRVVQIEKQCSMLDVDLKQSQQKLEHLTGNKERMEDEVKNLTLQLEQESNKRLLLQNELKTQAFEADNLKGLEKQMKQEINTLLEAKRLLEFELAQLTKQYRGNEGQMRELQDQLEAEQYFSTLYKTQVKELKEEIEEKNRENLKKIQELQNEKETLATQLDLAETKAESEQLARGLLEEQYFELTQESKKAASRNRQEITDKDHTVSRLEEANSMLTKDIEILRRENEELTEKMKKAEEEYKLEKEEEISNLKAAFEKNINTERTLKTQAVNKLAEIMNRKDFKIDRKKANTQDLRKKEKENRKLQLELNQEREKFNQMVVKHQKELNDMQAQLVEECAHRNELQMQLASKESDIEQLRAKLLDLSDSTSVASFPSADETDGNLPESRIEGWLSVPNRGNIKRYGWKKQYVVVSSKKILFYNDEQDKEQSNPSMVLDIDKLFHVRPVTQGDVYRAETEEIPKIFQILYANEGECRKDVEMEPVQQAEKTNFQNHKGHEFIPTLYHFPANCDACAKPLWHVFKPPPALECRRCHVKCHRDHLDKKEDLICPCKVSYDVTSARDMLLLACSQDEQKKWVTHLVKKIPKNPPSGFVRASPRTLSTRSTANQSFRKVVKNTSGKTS
Chain of UniProt P31751 (whole entry, looked up): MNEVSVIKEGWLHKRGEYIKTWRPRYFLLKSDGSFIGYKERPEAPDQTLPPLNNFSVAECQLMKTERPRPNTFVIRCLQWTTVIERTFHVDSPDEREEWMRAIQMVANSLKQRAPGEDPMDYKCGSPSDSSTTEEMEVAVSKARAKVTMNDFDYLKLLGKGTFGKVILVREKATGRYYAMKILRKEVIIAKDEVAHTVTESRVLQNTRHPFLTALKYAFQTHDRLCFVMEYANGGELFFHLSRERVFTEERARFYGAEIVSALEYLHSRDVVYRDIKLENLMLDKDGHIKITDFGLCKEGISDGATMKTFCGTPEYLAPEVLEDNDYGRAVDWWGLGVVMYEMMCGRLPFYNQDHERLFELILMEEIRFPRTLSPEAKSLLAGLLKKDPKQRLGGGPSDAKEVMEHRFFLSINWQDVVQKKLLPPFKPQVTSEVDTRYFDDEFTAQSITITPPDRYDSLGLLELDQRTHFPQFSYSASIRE
Chain of UniProt Q16832 (whole entry, looked up): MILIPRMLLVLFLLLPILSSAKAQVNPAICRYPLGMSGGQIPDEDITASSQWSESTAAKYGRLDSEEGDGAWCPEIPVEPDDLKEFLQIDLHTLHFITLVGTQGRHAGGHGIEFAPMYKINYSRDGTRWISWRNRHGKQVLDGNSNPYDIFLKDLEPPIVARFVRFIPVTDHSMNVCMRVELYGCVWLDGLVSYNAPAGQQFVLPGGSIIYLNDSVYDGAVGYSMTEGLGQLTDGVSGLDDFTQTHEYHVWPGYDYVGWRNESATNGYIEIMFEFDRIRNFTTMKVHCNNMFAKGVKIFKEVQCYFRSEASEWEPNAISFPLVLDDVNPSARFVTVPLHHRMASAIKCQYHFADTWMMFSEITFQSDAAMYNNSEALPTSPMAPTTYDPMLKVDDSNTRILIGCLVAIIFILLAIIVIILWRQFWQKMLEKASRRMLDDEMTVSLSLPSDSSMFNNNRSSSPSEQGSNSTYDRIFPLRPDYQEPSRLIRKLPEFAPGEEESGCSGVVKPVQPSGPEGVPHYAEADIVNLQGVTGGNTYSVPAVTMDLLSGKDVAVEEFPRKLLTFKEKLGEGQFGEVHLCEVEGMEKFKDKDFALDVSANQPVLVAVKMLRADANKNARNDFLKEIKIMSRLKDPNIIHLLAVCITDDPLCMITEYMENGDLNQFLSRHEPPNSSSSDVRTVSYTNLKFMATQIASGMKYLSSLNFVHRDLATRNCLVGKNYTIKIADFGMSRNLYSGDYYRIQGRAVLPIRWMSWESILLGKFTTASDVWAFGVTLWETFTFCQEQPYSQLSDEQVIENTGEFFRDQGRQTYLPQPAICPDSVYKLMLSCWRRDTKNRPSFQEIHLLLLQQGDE
Chain of UniProt Q8N568 (whole entry, looked up): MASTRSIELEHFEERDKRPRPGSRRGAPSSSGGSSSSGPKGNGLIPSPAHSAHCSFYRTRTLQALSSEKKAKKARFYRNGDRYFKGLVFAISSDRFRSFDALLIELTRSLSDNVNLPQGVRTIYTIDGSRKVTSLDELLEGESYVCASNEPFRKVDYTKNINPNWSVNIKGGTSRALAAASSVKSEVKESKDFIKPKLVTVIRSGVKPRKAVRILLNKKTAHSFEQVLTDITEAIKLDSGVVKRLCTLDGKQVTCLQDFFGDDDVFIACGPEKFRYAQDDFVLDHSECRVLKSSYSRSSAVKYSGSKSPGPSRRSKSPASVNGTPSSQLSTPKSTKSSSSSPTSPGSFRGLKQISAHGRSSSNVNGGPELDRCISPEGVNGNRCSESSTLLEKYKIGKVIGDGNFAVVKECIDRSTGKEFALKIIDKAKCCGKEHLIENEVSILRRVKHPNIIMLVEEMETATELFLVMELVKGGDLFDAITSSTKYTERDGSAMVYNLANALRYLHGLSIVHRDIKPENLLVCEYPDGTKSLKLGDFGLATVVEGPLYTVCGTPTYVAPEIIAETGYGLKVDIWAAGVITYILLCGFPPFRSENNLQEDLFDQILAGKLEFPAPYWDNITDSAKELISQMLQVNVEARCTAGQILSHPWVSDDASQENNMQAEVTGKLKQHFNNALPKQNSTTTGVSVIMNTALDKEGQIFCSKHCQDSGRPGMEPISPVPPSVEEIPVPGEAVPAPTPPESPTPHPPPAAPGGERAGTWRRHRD
Chain of UniProt Q02750 (whole entry, looked up): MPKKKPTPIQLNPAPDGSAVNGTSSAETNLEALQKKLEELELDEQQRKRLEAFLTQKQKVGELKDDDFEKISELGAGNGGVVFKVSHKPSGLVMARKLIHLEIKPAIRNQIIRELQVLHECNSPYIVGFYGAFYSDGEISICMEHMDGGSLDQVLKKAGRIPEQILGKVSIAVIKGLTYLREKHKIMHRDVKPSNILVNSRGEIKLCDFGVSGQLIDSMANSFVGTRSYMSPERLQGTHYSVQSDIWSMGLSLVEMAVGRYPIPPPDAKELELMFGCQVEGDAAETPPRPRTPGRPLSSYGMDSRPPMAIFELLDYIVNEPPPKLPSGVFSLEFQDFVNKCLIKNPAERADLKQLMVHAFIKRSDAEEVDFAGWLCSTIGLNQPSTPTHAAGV
Chain of UniProt Q6P2M8 (whole entry, looked up): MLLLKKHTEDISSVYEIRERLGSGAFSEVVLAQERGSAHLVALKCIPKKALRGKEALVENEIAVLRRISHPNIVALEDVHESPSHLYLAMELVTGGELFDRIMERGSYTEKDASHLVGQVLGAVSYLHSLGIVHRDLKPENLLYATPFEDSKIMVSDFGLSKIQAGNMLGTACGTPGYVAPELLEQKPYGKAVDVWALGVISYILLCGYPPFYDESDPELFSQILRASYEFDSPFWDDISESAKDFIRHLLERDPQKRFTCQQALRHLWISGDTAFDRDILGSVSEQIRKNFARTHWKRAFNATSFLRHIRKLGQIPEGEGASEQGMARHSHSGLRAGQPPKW
Chain of UniProt P50750 (whole entry, looked up): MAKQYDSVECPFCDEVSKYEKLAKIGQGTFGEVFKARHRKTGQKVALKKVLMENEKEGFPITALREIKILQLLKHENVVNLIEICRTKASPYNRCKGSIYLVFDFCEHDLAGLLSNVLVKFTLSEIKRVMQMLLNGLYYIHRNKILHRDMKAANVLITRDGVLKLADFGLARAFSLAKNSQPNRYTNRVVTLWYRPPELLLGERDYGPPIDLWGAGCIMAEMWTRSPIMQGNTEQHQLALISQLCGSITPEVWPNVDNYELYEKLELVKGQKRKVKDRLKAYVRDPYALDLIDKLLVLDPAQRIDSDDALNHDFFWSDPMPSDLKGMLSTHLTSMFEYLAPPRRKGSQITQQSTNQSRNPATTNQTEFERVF

Set 1
Target: Beta-1 adrenergic receptor (ADRB1, Homo sapiens, UniProt P08588)
Chain of UniProt P08588 (whole entry, looked up): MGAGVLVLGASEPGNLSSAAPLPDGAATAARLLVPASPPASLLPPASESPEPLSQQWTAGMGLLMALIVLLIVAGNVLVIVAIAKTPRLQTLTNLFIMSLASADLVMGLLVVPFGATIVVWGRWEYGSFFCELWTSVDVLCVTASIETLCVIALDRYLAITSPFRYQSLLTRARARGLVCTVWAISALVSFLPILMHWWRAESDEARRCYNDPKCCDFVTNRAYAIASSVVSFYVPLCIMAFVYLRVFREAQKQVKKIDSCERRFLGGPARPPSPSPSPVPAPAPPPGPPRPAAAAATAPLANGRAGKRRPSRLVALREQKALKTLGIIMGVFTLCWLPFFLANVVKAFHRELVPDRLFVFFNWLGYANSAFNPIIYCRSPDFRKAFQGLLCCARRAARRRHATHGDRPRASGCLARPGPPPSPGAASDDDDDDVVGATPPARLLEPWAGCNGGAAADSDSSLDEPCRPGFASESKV
Mode: agonist
| Structure (SMILES) | EC50 |
| --- | --- |
| Cc1cc(F)ccc1-c1n[nH]c2ncc(-c3cnn(C)c3)nc12 | ≥ 100 µM |
| COc1cc(CNCc2ccccc2C)ccc1OCC(O)CN1CCOCC1 (centres unmarked) | 10 µM |
| COc1ccccc1N1CCN(c2ncccc2CNC(=O)C2COC(=O)N2)CC1 (centres unmarked) | ≥ 100 µM |

Set 2
Cell line: normal organoid sample H
Method: CellTiter-Glo
Host: human
Sample: normal-adjacent epithelium
Concentration: 1 µM
Baseline: DMSO
| Structure (SMILES) | viability |
| --- | --- |
| C[C@@H]1CN(c2cc(-c3nn(C)c4ccc(OC5(C)CC5)cc34)ncn2)C[C@H](C)O1 | 95.6% |
| Cc1c(NC(=O)c2ccc(C(C)(C)C)cc2)cccc1-c1cn(C)c(=O)c(Nc2ccc(C(=O)N3CCOCC3)cc2)n1 | 128% and 109% |
| CN1CCN(C(=O)C(C)(C)c2ccc(C(=O)Nc3cn4cc(-c5ccncc5)ccc4n3)cc2)CC1 | 38.4% |
| CC(C)(O)c1cncc(-c2nc3ccc(F)cc3n2C2CC2)c1 | 84.8% |

Set 3
Cell line: mouse MPNST tumor cells
Method: high-content nuclear imaging
Measured: cell number
Concentration: 10 µM
Time: 12 h
Notes: mean of 2 replicates
Baseline: plate mean
Direction: higher = more cells
| SMILES | nuclei count |
| --- | --- |
| CN(CC[C@@H](Oc1ccc(-c2ccccc2)cc1)c1ccc(F)cc1)CC(=O)O | 1.61 z-score |
| CC1CC(C)(C)N(C(=O)CN2C(=O)c3ccccc3C2=O)c2ccccc21 (centres unmarked) | -0.21 z-score |
| COc1cc(NC(=O)c2ccc(-c3ccc(Cl)cc3)o2)cc(OC)c1 | 3.9 z-score |
| COC(=O)[C@H](c1ccccc1Cl)N1CCc2sccc2C1 | 0.411 z-score and 1.94 z-score |
| C=CC1=C(C)c2cc3nc(cc4[nH]c(cc5[nH]c(cc1n2)c(C)c5CCC(=O)O)c(CCC(=O)OC)c4C)C1(C)C3=CC=C(C(=O)OC)C1C(=O)OC (centres unmarked) | 1.02 z-score |

Set 4
Compound: COc1cc(C(=O)N2CCC(N3CCN(C)CC3)CC2)ccc1Nc1ncc2c(n1)N(C)c1ccccc1C(=O)N2C
Observed: kinase activity
| target | concentration | remaining activity [%] |
| --- | --- | --- |
| SRPK1 | 10 µM | 110 ± 11 |
| PIM1 | 1 µM | 94 ± 5 |
| PIM3 | 10 µM | 76 ± 4 |

Set 5
Host: mouse
Sample: microsomes or S9
Concentration: 2 µM
Time: 0.5 h
| Structure (SMILES) | remaining compound [%] |
| --- | --- |
| N#Cc1ccc2ncc(/C=C/c3nc4ccccc4o3)n2c1 | 2.14 |
| O=C(CN1C(=O)CC2(CCCC2)C1=O)Nc1cccc(-c2nc[nH]n2)c1 | 44.2 |
| Oc1cc(F)cc(CNC2CCCN(c3cc(N4CCOCC4)ncn3)C2)c1 (centres unmarked) | 3.84 |

Set 6
Structure (SMILES): N#CC(=C(N)Sc1ccc(N)cc1)c1ccccc1C(F)(F)F
Observed: enzyme activity
Mode: inhibitor
Concentration: 0.5 µM
Baseline: control
| target | remaining activity |
| --- | --- |
| Tyrosine-protein kinase TXK (TXK, Homo sapiens, UniProt P42681) | 98.7% |
| Vascular endothelial growth factor receptor 2 (KDR, Homo sapiens, UniProt P35968) | 94.4% |
| RAC-beta serine/threonine-protein kinase (AKT2, Homo sapiens, UniProt P31751) | 102% |
| Dual specificity mitogen-activated protein kinase kinase 1 (MAP2K1, Homo sapiens, UniProt Q02750) | 97.9% |
| Hepatocyte growth factor receptor (MET, Homo sapiens, UniProt P08581) | 77.2% |
| Discoidin domain-containing receptor 2 (DDR2, Homo sapiens, UniProt Q16832) | 102% |
| Serine/threonine-protein kinase tousled-like 2 (TLK2, Homo sapiens, UniProt Q86UE8) | 92.5% |
| Cyclin-dependent kinase 9, with cyclin K (CDK9, Homo sapiens, UniProt P50750) | 98% |
| Calcium/calmodulin-dependent protein kinase type 1B (PNCK, Homo sapiens, UniProt Q6P2M8) | 98.9% |
| Serine/threonine-protein kinase MRCK beta (CDC42BPB, Homo sapiens, UniProt Q9Y5S2) | 104% |
| Rho-associated protein kinase 1 (ROCK1, Homo sapiens, UniProt Q13464) | 104% |
| Myosin-IIIb (MYO3B, Homo sapiens, UniProt Q8WXR4) | 98.3% |
| Dual specificity protein kinase CLK4 (CLK4, Homo sapiens, UniProt Q9HAZ1) | 93.4% |
| Serine/threonine-protein kinase DCLK2 (DCLK2, Homo sapiens, UniProt Q8N568) | 99.1% |

Some of these lines once more (set 6):
| target | remaining activity |
| --- | --- |
| Discoidin domain-containing receptor 2 (DDR2, Homo sapiens, UniProt Q16832) | 102% |
| Serine/threonine-protein kinase tousled-like 2 (TLK2, Homo sapiens, UniProt Q86UE8) | 92.5% |
| Cyclin-dependent kinase 9, with cyclin K (CDK9, Homo sapiens, UniProt P50750) | 98% |
| Calcium/calmodulin-dependent protein kinase type 1B (PNCK, Homo sapiens, UniProt Q6P2M8) | 98.9% |
| Serine/threonine-protein kinase MRCK beta (CDC42BPB, Homo sapiens, UniProt Q9Y5S2) | 104% |
